Measurements collected from several papers.
Numbered parts are unrelated; each lists some results of a single study.
UniProt Q9HAZ1, sequence (whole entry, looked up): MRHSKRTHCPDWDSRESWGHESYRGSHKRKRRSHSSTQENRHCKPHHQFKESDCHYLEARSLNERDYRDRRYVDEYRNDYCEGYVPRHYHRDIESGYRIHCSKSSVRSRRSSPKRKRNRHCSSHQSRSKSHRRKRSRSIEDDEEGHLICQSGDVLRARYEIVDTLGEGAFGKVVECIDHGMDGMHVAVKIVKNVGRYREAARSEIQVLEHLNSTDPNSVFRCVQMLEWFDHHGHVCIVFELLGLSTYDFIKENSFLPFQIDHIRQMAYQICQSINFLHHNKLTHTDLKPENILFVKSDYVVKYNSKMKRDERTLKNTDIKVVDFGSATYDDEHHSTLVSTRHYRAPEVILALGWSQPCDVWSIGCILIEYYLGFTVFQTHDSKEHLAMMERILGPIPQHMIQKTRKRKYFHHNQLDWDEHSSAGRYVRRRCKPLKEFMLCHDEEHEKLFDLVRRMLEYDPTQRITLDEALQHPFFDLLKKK
UniProt O75914, sequence (whole entry, looked up): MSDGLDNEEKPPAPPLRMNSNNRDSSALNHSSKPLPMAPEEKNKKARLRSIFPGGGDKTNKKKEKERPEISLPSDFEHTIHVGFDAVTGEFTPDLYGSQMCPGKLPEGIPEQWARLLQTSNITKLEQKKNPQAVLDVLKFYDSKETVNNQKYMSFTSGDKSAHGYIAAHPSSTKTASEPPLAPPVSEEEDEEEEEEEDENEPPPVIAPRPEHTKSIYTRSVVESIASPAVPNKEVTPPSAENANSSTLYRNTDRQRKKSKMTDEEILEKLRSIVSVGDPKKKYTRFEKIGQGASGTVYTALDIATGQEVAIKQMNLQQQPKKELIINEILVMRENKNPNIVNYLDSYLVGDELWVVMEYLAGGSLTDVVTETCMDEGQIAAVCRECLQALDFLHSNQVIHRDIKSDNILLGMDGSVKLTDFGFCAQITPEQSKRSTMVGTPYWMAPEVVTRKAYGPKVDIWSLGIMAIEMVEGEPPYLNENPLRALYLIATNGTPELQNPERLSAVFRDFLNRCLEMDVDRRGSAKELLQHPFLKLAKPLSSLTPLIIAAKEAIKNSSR
UniProt P28482, sequence (whole entry, looked up): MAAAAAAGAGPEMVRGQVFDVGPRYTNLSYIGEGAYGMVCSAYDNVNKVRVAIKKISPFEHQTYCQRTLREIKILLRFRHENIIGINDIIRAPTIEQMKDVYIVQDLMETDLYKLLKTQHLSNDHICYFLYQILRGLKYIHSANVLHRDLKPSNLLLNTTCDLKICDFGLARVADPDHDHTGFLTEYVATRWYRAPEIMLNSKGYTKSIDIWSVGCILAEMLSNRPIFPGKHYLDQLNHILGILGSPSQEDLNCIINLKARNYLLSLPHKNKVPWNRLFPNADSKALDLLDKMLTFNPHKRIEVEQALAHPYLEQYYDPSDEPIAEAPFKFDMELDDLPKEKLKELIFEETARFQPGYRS
UniProt Q8N4C8, sequence (whole entry, looked up): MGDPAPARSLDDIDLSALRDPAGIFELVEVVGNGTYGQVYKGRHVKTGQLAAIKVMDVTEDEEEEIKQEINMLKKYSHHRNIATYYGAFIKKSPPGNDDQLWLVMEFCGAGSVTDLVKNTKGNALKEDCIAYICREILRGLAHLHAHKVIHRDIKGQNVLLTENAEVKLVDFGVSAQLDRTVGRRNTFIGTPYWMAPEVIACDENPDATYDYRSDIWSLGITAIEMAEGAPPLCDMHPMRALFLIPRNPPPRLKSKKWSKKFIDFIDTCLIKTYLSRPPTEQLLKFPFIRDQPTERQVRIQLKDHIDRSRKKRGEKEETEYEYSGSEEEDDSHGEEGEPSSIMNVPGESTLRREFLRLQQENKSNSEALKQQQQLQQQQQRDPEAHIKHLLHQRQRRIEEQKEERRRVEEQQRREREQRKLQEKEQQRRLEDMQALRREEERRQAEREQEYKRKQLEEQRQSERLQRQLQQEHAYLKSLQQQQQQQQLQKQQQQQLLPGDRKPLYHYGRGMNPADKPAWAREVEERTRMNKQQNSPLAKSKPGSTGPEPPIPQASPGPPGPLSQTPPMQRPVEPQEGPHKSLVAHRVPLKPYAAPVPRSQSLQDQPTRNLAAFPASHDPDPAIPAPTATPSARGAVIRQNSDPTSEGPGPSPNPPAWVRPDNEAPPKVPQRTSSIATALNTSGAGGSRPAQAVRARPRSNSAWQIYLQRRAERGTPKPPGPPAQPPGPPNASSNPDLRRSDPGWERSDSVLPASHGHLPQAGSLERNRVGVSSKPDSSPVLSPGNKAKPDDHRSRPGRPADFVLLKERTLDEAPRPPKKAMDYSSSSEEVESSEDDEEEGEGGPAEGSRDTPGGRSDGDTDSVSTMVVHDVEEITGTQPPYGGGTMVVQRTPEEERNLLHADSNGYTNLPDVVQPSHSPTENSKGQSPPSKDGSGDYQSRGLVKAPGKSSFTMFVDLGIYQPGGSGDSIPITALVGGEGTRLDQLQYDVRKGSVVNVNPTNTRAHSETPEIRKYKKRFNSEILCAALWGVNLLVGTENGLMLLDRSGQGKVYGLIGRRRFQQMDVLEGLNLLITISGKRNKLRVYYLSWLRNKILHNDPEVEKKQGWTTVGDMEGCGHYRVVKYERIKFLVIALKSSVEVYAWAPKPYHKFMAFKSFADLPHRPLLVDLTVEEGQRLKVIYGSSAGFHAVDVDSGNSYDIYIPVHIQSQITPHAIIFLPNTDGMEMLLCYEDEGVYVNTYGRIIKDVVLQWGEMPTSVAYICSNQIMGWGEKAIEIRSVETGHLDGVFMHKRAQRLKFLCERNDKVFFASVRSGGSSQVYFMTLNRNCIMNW
UniProt Q16832, sequence (whole entry, looked up): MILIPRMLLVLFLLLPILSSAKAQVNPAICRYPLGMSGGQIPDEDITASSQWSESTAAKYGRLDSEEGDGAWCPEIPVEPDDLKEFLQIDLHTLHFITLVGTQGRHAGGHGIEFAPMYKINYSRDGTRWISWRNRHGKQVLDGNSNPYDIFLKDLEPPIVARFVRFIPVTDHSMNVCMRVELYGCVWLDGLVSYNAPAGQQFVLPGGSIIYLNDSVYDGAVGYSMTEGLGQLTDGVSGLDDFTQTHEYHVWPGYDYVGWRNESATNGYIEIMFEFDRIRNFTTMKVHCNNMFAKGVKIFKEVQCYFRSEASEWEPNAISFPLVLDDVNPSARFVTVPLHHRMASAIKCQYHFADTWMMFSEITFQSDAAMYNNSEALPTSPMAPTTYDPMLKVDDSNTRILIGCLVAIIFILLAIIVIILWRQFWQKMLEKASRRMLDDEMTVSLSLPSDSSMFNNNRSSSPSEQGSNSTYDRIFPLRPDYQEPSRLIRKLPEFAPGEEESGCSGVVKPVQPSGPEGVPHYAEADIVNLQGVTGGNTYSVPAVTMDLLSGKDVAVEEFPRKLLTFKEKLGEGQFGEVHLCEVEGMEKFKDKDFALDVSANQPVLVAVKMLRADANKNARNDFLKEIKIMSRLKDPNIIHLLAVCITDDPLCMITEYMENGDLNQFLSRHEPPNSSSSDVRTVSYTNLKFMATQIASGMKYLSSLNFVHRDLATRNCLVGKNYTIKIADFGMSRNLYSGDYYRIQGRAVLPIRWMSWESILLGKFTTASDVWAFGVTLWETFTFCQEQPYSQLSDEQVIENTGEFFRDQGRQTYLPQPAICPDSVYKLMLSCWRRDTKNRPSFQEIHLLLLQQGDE
UniProt Q6P2M8, sequence (whole entry, looked up): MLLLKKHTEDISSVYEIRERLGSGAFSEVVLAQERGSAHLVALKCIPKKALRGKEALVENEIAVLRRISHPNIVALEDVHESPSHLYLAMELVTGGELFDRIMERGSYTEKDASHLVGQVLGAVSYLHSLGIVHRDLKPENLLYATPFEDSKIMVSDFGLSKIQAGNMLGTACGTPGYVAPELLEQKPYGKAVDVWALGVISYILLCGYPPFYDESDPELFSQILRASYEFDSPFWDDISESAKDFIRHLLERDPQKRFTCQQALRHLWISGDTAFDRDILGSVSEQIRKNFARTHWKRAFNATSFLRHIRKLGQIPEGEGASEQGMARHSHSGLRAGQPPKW

Study 1
Target: D(2) dopamine receptor (DRD2, Homo sapiens, UniProt P14416)
UniProt P14416, sequence (whole entry, looked up): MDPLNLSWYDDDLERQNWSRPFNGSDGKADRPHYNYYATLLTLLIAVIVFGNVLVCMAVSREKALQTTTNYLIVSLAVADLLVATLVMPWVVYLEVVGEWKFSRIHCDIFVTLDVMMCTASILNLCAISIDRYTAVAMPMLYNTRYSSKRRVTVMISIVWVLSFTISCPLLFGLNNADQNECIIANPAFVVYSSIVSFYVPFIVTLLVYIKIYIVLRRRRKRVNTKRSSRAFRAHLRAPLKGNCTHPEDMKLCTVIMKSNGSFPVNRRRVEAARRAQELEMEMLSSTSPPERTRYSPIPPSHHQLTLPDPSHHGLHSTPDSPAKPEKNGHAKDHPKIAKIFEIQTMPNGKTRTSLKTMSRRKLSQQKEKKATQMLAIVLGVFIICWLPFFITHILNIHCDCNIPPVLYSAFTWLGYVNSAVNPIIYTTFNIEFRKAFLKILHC
Effect on: ligand displacement
Tested at: 10 µM
Structure (SMILES)	inhibition [%]
COc1ccc2cc(OCC3(C(=O)O)CN(C(=O)c4ccc(F)cc4)C3)ccc2c1	-23.4
CN1CCN(c2cnc3c(C4CCN(C(=O)c5ccc(OC(F)(F)F)cc5N)CC4)ncnc3c2)CC1	-10.4
CC1CCN(c2ccnc(NCc3cn(C)cn3)n2)CC1	4.96
Cc1ncc(-c2cc(Cl)ccc2F)cc1-n1c(=O)n(CC(N)=O)c2ccccc21	-1.99
O=S(=O)(NC1CCC(c2cc(F)ccc2F)(S(=O)(=O)c2ccc(Cl)cc2)CC1)C(F)(F)F (centres unmarked)	11.4
CC(=O)N1CCC(c2ccc(C(=O)NC3=NCCN3)cc2C(F)(F)F)CC1	-4.57
C[C@@H]1CN(c2cc(-c3n[nH]c4ccc(OC5(C)CC5)cc34)ncn2)C[C@H](C)O1	-14.4
COc1cc(-c2cn(C3CCc4c(F)cccc4N(CC(F)(F)F)C3=O)nn2)ccc1-n1cnc(C)c1 (centres unmarked)	31.2
Cc1ccccc1Oc1cc(-n2c(=O)cc(C(F)(F)F)[nH]c2=O)c2ccccc2c1Cl	-12.2
O=C(N[C@H]1CCCCC/C=C\C2C[C@@]2(C(=O)O)NC(=O)[C@@H]2C[C@@H](Oc3ccncc3)CN2C1=O)OC1CCCC1 (some centres unmarked)	-17

Study 2
Compound: c1ccc(-c2n[nH]c3c2oc2ccccc23)cc1
Effect on: enzyme activity
Mode: inhibitor
Tested at: 0.5 µM
Baseline: control
target	remaining activity [%]
PNCK (Homo sapiens, UniProt Q6P2M8)	98.6
GRK4 (Homo sapiens, UniProt P32298)	110
MINK1 (Homo sapiens, UniProt Q8N4C8)	81.4
MET (Homo sapiens, UniProt P08581)	98.4
MAPK14 (Homo sapiens, UniProt Q16539)	102
MAPK1 (Homo sapiens, UniProt P28482)	118
CDC42BPB (Homo sapiens, UniProt Q9Y5S2)	99
DDR2 (Homo sapiens, UniProt Q16832)	96
CLK4 (Homo sapiens, UniProt Q9HAZ1)	98.9
PAK3 (Homo sapiens, UniProt O75914)	89.2
Cyclin-dependent kinase 1, with cyclin A (CDK1, Homo sapiens, UniProt P06493)	94.1
MARK2 (Homo sapiens, UniProt Q7KZI7)	92.9
MAPK11 (Homo sapiens, UniProt Q15759)	95.7
MAP2K1 (Homo sapiens, UniProt Q02750)	96.4

Study 3
SMILES: CC(C)n1cnc(-c2ccc(F)cc2)c1-c1ncc(C(=O)Nc2ccc(N3CCN(C)CC3)cc2)[nH]1
Host: idiopathic pulmonary fibrosis patients
Medium: plasma
route	dose	time	setting	AUC(0-t)
	30 mg twice daily	week 12	median	1090 ng·h/mL
oral	60 mg once daily	week 12	median	3310 ng·h/mL
oral	30 mg once daily	week 0	arithmetic mean	553 ng·h/mL
oral	60 mg once daily	week 0	median	1260 ng·h/mL
	30 mg twice daily	week 12	arithmetic mean	1390 ng·h/mL
	30 mg twice daily	week 0	arithmetic mean	315 ng·h/mL

Study 4
Target: Eukaryotic initiation factor 4A-I (EIF4A1, Homo sapiens, UniProt P60842)
UniProt P60842, sequence (whole entry, looked up): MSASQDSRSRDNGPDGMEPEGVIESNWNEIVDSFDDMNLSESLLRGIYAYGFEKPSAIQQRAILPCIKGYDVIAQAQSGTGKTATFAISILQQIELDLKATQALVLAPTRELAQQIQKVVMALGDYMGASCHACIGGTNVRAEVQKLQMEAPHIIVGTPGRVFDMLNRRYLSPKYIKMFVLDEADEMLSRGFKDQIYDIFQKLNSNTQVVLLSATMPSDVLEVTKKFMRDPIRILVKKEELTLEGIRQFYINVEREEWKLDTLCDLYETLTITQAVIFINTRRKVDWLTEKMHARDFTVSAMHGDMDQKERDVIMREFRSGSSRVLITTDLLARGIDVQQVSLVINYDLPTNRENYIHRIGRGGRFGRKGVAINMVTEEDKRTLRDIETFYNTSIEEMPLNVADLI
Effect on: RNA clamping
Technique: fluorescence polarization
Tested at: concentration not given
Setting: mean of two replicates
With: FAM-labelled poly r(AG)8 RNA
Compound	fluorescence polarization change [mP]
COc1ccc([C@]23[C@H](c4ccccc4)C[C@@H](O)[C@@]2(O)c2c(OC)cccc2N3C)cc1	3.5
COc1ccc([C@@]23Oc4cc(OC)cc(OC)c4[C@]2(O)c2nc(C)[nH]c(=O)c2[C@H]3c2ccccc2)cc1	66.5
C#CCOc1cc(OC)c2c(c1)O[C@@]1(c3ccc(OC)cc3)[C@H](c3ccccc3)c3c(nc4n(c3=O)CCC4)[C@@]21O	27
COC(=O)[C@H]1C(=O)[C@@]2(NC34C[C@H]5C[C@@H](C3)C[C@@H](C4)C5)c3c(OC)cc(OC)cc3O[C@@]2(c2ccc(OC)cc2)[C@@H]1c1ccccc1	0.4
COCCN[C@@]12C(=O)[C@H](C(=O)N(C)C)[C@@H](c3ccccc3)[C@]1(c1ccc(OC)cc1)Oc1cc(OC)cc(OC)c12	-5.3
